{"data": "Experimental data from different studies", "note": "A part holds a random share of what one study measured."}
{"data": "Set 1", "target": "Interferon regulatory factor 7, full length, phosphomimetic (IRF7, Homo sapiens, UniProt Q92985, residues 1-503, S471D/S472D/S475D/S476D/S477D/S483D/S484D/S487D)", "technique": "protein-binding microarray", "molecule type": "double-stranded DNA, one strand shown", "sample": "in vitro", "tested at": "2200 nM top", "notes": "60-bp whole probe", "with": "salmon DNA 0.4 mg/ml", "reference": "random background probes", "reading": "higher = stronger binding", "shared flanks, not repeated": "GCCTAGCAC … GTCTTGATTCGCTTGACGCTGCTG", "sequence of UniProt Q92985 (whole entry, unmodified, looked up)": "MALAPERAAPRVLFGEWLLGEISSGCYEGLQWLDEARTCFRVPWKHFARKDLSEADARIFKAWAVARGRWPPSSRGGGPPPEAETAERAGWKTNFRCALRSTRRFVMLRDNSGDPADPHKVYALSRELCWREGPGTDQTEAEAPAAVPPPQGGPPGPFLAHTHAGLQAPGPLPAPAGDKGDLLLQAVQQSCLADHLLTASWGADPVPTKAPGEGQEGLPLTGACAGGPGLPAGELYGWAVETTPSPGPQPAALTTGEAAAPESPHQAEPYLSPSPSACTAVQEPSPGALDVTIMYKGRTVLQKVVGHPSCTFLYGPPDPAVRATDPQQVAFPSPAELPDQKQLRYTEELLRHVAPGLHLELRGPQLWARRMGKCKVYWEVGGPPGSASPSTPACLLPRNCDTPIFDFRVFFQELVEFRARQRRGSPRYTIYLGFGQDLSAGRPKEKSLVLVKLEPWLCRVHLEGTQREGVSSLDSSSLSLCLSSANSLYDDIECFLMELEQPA"}
{"Oligonucleotide": "TAAGAACTGGGGTTTCGATTAGTGCTA", "fitted relative affinity": "2.25 z-score"}
{"Oligonucleotide": "TCATGTCCCCCTTTTATACTGTGCTAG", "fitted relative affinity": "1.4 z-score"}
{"Oligonucleotide": "CCCAGGGTCTGTTTGGGTCTGTGCTAG", "fitted relative affinity": "-1.19 z-score"}
{"Oligonucleotide": "TCACTCTTGCTTTTTAGACTGTGCTAG", "fitted relative affinity": "1.65 z-score"}
{"Oligonucleotide": "TCAAGACTTTCTTTCAAACTGTGCTAG", "fitted relative affinity": "0.256 z-score"}
{"Oligonucleotide": "GATGAACTGGGGACTGGAGACGTGCTA", "fitted relative affinity": "-0.36 z-score"}
{"data": "Set 2", "target": "PABPC1L2, full length, GST fusion (mouse, UniProt A0ABA7IW68)", "technique": "RNAcompete", "molecule type": "RNA", "sample": "in vitro", "tested at": "20 nM", "notes": "7-mer, probes averaged, single round", "reference": "mean of 7-mers", "reading": "higher = stronger binding", "Target sequence (chain)": "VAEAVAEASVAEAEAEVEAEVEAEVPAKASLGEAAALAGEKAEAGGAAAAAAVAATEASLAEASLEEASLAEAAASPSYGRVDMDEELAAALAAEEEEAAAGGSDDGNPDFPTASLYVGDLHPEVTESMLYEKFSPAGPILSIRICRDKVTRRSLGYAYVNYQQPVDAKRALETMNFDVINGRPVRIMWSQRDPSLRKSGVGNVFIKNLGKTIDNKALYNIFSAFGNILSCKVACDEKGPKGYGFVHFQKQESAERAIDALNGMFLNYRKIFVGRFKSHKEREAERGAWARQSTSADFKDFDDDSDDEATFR"}
{"Oligonucleotide": "CACACCU", "7-mer Z-score": -0.246}
{"Oligonucleotide": "GAGAAGU", "7-mer Z-score": -0.00652}
{"Oligonucleotide": "CUAACGG", "7-mer Z-score": -0.177}
{"Oligonucleotide": "GUGCCCA", "7-mer Z-score": -0.121}
{"Oligonucleotide": "GGGAGCU", "7-mer Z-score": 0.153}
{"data": "Set 3", "target": "Histone acetyltransferase KAT6A, both winged helices, GST fusion (KAT6A, Homo sapiens, UniProt Q92794, residues 1-181)", "technique": "protein binding microarray", "molecule type": "double-stranded DNA, one strand shown", "sample": "in vitro", "tested at": "not given", "notes": "8-mer, flanks averaged, mean of 2 arrays, mostly near background", "reference": "not given", "reading": "higher = stronger binding", "Residues (chain)": "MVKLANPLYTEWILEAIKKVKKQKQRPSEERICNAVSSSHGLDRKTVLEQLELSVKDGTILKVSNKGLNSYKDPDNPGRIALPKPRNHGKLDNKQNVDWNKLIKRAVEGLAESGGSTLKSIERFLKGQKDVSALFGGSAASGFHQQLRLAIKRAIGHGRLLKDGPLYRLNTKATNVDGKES"}
{"Oligonucleotide": "GACGGTCC", "E-score": 0.107}
{"Oligonucleotide": "GAAAAGTA", "E-score": -0.177}
{"Oligonucleotide": "CTGTTGGC", "E-score": -0.23}
{"Oligonucleotide": "ACGCATTG", "E-score": 0.193}
{"Oligonucleotide": "ACCAAAGT", "E-score": -0.164}
{"data": "Mixed results"}
{"Substance": "PhoQ, residues 284 288 289 292 302 303 SLGVVW", "target": "PhoP, residues 12 14 15 18 19 SEGLL (Escherichia coli, UniProt P23836)", "test": "Sort-seq, measured: YFP reporter", "system": "E. coli", "setting": "PhoQ-PhoP variant library, with: 10 µM Mg2+", "scale": "reference: high Mg2+ state, higher = stronger signaling", "quantity": "fold induction", "value": 9.57}
